Published values from different studies.
Lines come from different studies, so protocols differ. Several values in a cell are separate wells, animals, samples, runs or records. Numbers after ± are the reported error.

Compound	test	test system	conditions	scale	quantity	result
NCCOCC(=O)N1CCCC(C(=O)NCc2nc(-c3ccc(-c4ccc(F)cc4)cc3)cs2)C1 (stereo not drawn)	–	male Sprague Dawley rat	intravenous, 1 mg/kg	–	clearance	50 mL/min/kg
Oc1c(Cl)cc2c(c1Cl)Oc1cc(Cl)c(Cl)cc1O2	–	whole cow milk	100 nM nominal	–	dose fraction in milk fat	54.8%
CCc1ccc(CC/C=C/c2ccc3c(c2)C(=O)CC3)cc1	–	Sprague-Dawley rat, male, serum	oral, 450 mg/kg/day, 14 days	–	creatinine	17.7 µM
COc1ccc([C@@H](O)c2cc(-c3ncnc4cc(N5CCOCC5)ccc34)c(F)cc2Cl)nn1	–	patients, advanced solid tumours	oral, 200 mg twice daily, treatment-emergent, added: avelumab	–	metabolism, nutrition disorders incidence	7%
CC(C)CC(=O)OC[C@H]1O[C@@](C#N)(c2ccc3c(N)ncnn23)[C@H](O)[C@@H]1O	–	Rats plasma	5 µM, 30 min	–	remaining compound	0.012%
CC[C@H](C)[C@H](NC(=O)[C@H](Cc1ccccc1)NC(=O)[C@H](CCC(=O)O)NC(=O)[C@H](CCCNC(=N)N)NC(=O)[C@H](C)NC(=O)[C@H](C)NC(=O)[C@H](CCC(N)=O)NC(=O)[C@H](CCC(=O)O)NC(=O)[C@H](CCC(=O)O)NC(=O)[C@H](CC(C)C)NC(=O)[C@H](Cc1ccc(O)cc1)NC(=O)[C@H](CO)NC(=O)[C@H](CO)NC(=O)[C@@H](NC(=O)[C@H](CC(=O)O)NC(=O)[C@H](CO)NC(=O)[C@@H](NC(=O)[C@H](Cc1ccccc1)NC(=O)[C@@H](NC(=O)CNC(=O)[C@H](CCC(=O)O)NC(=O)[C@H](C)NC(=O)CCc1cnc[nH]1)[C@@H](C)O)[C@@H](C)O)C(C)C)C(=O)N[C@@H](C)C(=O)N[C@@H](Cc1c[nH]c2ccccc12)C(=O)N[C@@H](CC(C)C)C(=O)N[C@H](C(=O)N[C@@H](CCCNC(=N)N)C(=O)NCC(=O)N[C@@H](CCCNC(=N)N)C(=O)N[C@@H](CCCCNC(=O)COCCOCCNC(=O)COCCOCCNC(=O)CC[C@H](NC(=O)CCCCCCCCCCCCCCCCC(=O)O)C(=O)O)C(=O)NCC(=O)NCC(=O)N[C@@H](CO)C(=O)N[C@@H](CCCCNC(=O)[C@H](CCCCNc1c(NCCCCCN(O)C(=O)CCC(=O)NCCCCCN(O)C(=O)CCC(=O)NCCCCCN(O)C(C)=O)c(=O)c1=O)Nc1c(NCCCCCN(O)C(=O)CCC(=O)NCCCCCN(O)C(=O)CCC(=O)NCCCCCN(O)C(C)=O)c(=O)c1=O)C(=O)O)C(C)C [zirconium-89 labelled]	ex vivo gamma counting	male Sprague-Dawley rats, bone marrow	intravenous, 1 nmol, 24 h	–	tissue uptake	0.683 %ID/g
NC(=O)[C@H]1CCN(c2ncnc(N)c2F)C[C@@H]1N1CCC[C@@H](Nc2cc(Cl)cc(C(F)(F)F)c2)C1=O	–	B-cell malignancy patients	oral, 246 mg twice daily, dose	–	grade ≥3 thrombocytopenia	0%
CC[C@H](C)[C@H](NC(=O)[C@H](CCCCN)NC(=O)[C@H](CCC(=O)O)NC(=O)[C@H](CCCCN)NC(=O)[C@H](CO)NC(=O)[C@H](CCCCN)NC(=O)[C@H](CCCNC(=N)N)NC(=O)[C@H](Cc1ccccc1)NC(=O)[C@H](Cc1ccccc1)NC(=O)[C@H](CC(=O)O)NC(=O)CNC(=O)[C@H](CC(C)C)NC(=O)[C@@H](N)CC(C)C)C(=O)NCC(=O)N[C@@H](CCCCN)C(=O)N[C@@H](CCC(=O)O)C(=O)N[C@@H](Cc1ccccc1)C(=O)N[C@@H](CCCCN)C(=O)N[C@@H](CCCNC(=N)N)C(=O)N[C@H](C(=O)N[C@H](C(=O)N[C@@H](CCC(N)=O)C(=O)N[C@@H](CCCNC(=N)N)C(=O)N[C@H](C(=O)N[C@@H](CCCCN)C(=O)N[C@@H](CC(=O)O)C(=O)N[C@@H](Cc1ccccc1)C(=O)N[C@@H](CC(C)C)C(=O)N[C@@H](CCCNC(=N)N)C(=O)N[C@@H](CC(N)=O)C(=O)N[C@@H](CC(C)C)C(=O)N[C@H](C(=O)N1CCC[C@H]1C(=O)N[C@@H](CCCNC(=N)N)C(=O)N[C@H](C(=O)N[C@@H](CCC(=O)O)C(=O)N[C@@H](CO)C(=O)O)[C@@H](C)O)C(C)C)[C@@H](C)CC)C(C)C)[C@@H](C)CC	LC-MS	buffer with human neutrophil elastase	40 µM, 20 min, pH 7.5, 37 °C	baseline: 0 h	remaining intact peptide	32.2% and 24.6% and 25.2%
CNC(=O)c1c(C)oc2cc(Oc3ccnc4cc(OCCN5CCOCC5)ccc34)ccc12	–	patients with advanced solid tumours	–	–	maximum tolerated dose	8 mg
CCN(CC)CCCC[C@H](NC(=O)[C@H](CC(C)C)NC(=O)[C@H](C)NC(=O)[C@H](Cc1ccccc1)NC(=O)c1ccc(C(C)(C)C)cc1)C(=O)N[C@@H](CO)C(=O)OC	–	male Swiss Albino mice, plasma	intraperitoneal, 10 mg/kg, 1 h	–	plasma concentration	559 ng/mL
CO[C@H]1C[C@@H]2CC[C@@H](C)[C@@](O)(O2)C(=O)C(=O)N2CCCC[C@H]2C(=O)O[C@H]([C@H](C)C[C@@H]2CC[C@@H](OC(=O)NCCOCCOCCOCCOCCOCCOCCOCCOCCC(=O)N3CCc4cc(Cn5nc(-c6ccc7oc(N)nc7c6)c6c(N)ncnc65)ccc4C3)[C@H](OC)C2)C[C@@H](O)[C@H](C)/C=C(\C)[C@@H](O)[C@@H](OC)C(=O)[C@H](C)C[C@H](C)/C=C/C=C/C=C/1C	phase 1 dose escalation, refers to: gastric haemorrhage	advanced solid tumour patients	intravenous, 12 mg weekly, any grade	–	dose-reducing adverse events	0%
C=CC(=O)N1CC[C@H](n2nc(C#Cc3cc(OC)cc(OC)c3)c3c(N)ncnc32)C1	–	patients with advanced solid tumours	oral, dose not given, Dysgeusia, any grade, QD, added: phosphate-binding therapy	–	adverse drug reaction incidence	15%
COc1ccc2nc3cc(Cl)ccc3c(Nc3cc(CN4CCCC4)c(O)c(CN4CCCC4)c3)c2n1	–	mouse, blood	oral, 57 mg/kg, tolerability, mean	–	platelet distribution width	15.5%
COc1ccc(CCC2CCCC(CCc3ccc(OC)cc3)N2C[C@@H](O)CO)cc1.Cl (stereo in doubt)	–	rabbit Purkinje fibres	0.1 µM, cycle length 0.5 s	baseline: baseline	Vmax change	1.2 ± 4.7%
[O-][S+]1CCc2nc(N3CCC(c4ncc(Cl)cn4)CC3)nc(NC3(CO)CCC3)c21 (stereo not drawn)	refers to: nervous system disorders	healthy male humans	36 mg single dose	–	adverse event incidence	33.3%
CC(C)Nc1ccnc(Nc2cccc(-c3cccnc3)c2)n1	refers to: Phosphorus	mouse, blood	intraperitoneal, 5 mg/kg	–	blood chemistry	12 mg/dL
CCNCCCNC/C=C\CNCCCNCC	–	human, advanced solid tumours	intravenous, dose not given	baseline: patients	drug-related TEAE, nervous system	21.7%

Compound	test	test system	conditions	scale	quantity	result
COc1cc2c(Oc3ccc4[nH]c(C)cc4c3F)ccnc2cc1OCC1(N)CC1	–	paediatric recurrent refractory sarcoma	10 mg	–	grade 1 or 2 Hyperuricemia	0%
CC(C)C[C@H](NC(=O)[C@H](CCCCN)NC(=O)OCC1c2ccccc2-c2ccccc21)C(=O)N[C@H](C(=O)N[C@@H](Cc1ccccc1)C(=O)N[C@@H](Cc1ccccc1)C(=O)N[C@@H](CCCCN)C(=O)NCC(=O)N[C@@H](Cc1ccccc1)C(=O)N[C@@H](C)C(=O)N[C@@H](Cc1c[nH]c2ccccc12)C(=O)N[C@@H](CC(N)=O)C(=O)N[C@H](C(=O)N[C@H]1CSSC[C@@H](C(=O)N[C@@H](Cc2c[nH]cn2)C(=O)N[C@@H](CCCNC(=N)N)C(=O)N[C@@H](CCCNC(=N)N)C(=O)N[C@@H](C)C(=O)N[C@@H](CC(N)=O)C(N)=O)NC(=O)[C@H](C(C)C)NC(=O)[C@H](CCCNC(=N)N)NC(=O)[C@H](C(C)C)NC(=O)CNC(=O)[C@H](CC(N)=O)NC(=O)[C@H](CCCNC(=N)N)NC(=O)[C@H](Cc2ccc(O)cc2)NC(=O)[C@H](C(C)C)NC1=O)C(C)C)C(C)C	–	ICR mice, serum	intraperitoneal, 10 mg/kg, day 5	–	phosphorus	3.27 ± 0.08 mmol/L
C[C@]1(CO)Cc2ncn(-c3ccc(C#N)c(Cl)c3)c2C(=O)O1	–	human, plasma	0.7 mg single dose, median	–	tmax	30 min
O=C(Nc1ccccc1)C1CCN(C(=O)Oc2cccnc2)CC1	refers to: Tremor	healthy female human	concentration not given, all doses pooled	–	adverse event incidence	4%
C[C@H]1COCCN1c1nc(NCc2cccnc2C(F)(F)F)c2cccnc2n1	–	BALB/c mice	oral, 10 mg/kg	–	AUC(0-24 h)	18000 ng·h/mL
C1=Cc2nc1cc1ccc([n-]1)c(-c1ccccc1)c1nc(cc3ccc([n-]3)c2-c2ccccc2)C=C1.CC(=O)[O-].[Mn+3]	LC-MS/MS	Sprague-Dawley rat, plasma	oral gavage, dose not given, 60 min	–	plasma concentration	53 ng/mL and 80 ng/mL
COc1c(OCCCN2CCOCC2)ccc2c1N=C(NC(=O)c1cnc(N)nc1)N1CCN=C21	–	patients with advanced malignancies	intravenous, dose not given, all grades, all cohorts, added: gemcitabine	–	maculopapular rash incidence	26%
CN[C@@H](C)C(=O)N[C@H]1CN(S(=O)(=O)c2cccc(S(=O)(=O)N3CC[C@H]4CC[C@@H](C(=O)NC(c5ccccc5)c5ccccc5)N4C(=O)[C@@H](NC(=O)[C@H](C)NC)C3)c2)CC[C@H]2CC[C@@H](C(=O)NC(c3ccccc3)c3ccccc3)N2C1=O	–	patients with advanced solid tumours	12 mg, phase I monotherapy	–	treatment-related pruritus incidence	0%
CCC[C@@](N)(CO)CCc1ccc(OCCCCCC(C)C)cc1	–	dog, male hounds, plasma	oral capsule, 2.5 mg/kg, median	–	half-life	12.8 h
O=C(Nc1ccccc1)C1CCN(C(=O)Oc2cccnc2)CC1	psychotropic effects VAS	healthy women	100 mg	baseline: pre-dose baseline, direction not given	change in Sounds score	0.1
N[C@@H]1c2ccccc2OC12CCN(c1cnc3c(N4CCCc5ncccc54)n[nH]c3n1)CC2	–	patients advanced metastatic solid tumours	oral, 60 mg once daily, RP2D expansion phase	–	incidence of any serious TEAE	30%
Cn1cc(-c2nc(N[C@@H]3CCCC[C@@H]3N)c(F)c3c2C(=O)NC3)cn1	refers to: Hematochezia	patients with relapsed or refractory AML	oral, 160 mg once daily	–	hemorrhagic adverse events	11%
C[C@@H](NC(=O)N1C(=O)[C@H](Cc2ccnc(N)c2)[C@H]1C(=O)O)C1CCCCC1	–	healthy adult Chinese volunteers	continuous intravenous infusion, 1.5 mg/kg/h, 5-day infusion, CTCAE 5.0 grading	–	incidence of decreased hemoglobin	0%
N.N.[Cl][Pt][Cl]	histopathology	tumour-free KSN/Slc nude mice, liver and kidney	dose not given, 10 days	–	lesion area	7.49e+06 µm2
O=C1Nc2cc3[nH]nc(-c4ccncc4)c3cc2CN1Cc1ccccc1	CTCAE v4.03	human, relapsed or refractory advanced solid tumours	intravenous, 4.8 mg/kg	–	patients with vitreous floaters	0%
O=S(=O)(Nc1ccccc1)c1ccc(NC(=S)Nc2ccccc2)cc1	–	female mouse, blood	oral, 80 mg/kg daily, 14 days	–	mean corpuscular haemoglobin	15.4 pg
